{"data": "Assay results from different studies", "organism": "HIV-1", "note": "Compare with care: the assays were run in different laboratories. ± gives the spread as reported."}
{"Compound": "O=C(NCc1ccc(F)cc1F)c1cc2cccnc2n(O)c1=O", "read-out": "viral replication", "technique": "lentiviral vector", "strain": "wild-type integrase", "notes": "5% FBS", "EC50 [nM]": "5.1 ± 1.9"}
{"Compound": "Cc1cccc(-c2cc(C#N)cc(Oc3c(C(F)(F)F)ccn(Cc4n[nH]c(=O)n4C)c3=O)c2)c1", "read-out": "viral cytopathicity", "cells": "MT4", "strain": "wild type", "EC50 [nM]": "13 ± 3.4"}
{"Compound": "O=C1c2c(ccc(O)c2O)CN1Cc1ccc(F)c(Cl)c1", "read-out": "viral replication", "strain": "integrase Y143R mutant, VSV-G pseudotyped", "EC50 [nM]": "370 ± 80"}
{"Compound": "CC(C)C[C@@H]1NC(=O)[C@H](CCCCN)NC(=O)[C@H](CC(C)C)NC(=O)[C@@](C)(NC(=O)[C@H](Cc2ccccc2)NC(=O)[C@H](Cc2ccc(O)cc2)NC(=O)[C@H](C)NC(=O)[C@@H](N)[C@@H](C)O)CCC=CCC[C@@](C)(C(=O)NCC(=O)N[C@@H](CCCNC(=N)N)C(=O)N[C@@H](Cc2c[nH]c3ccccc23)C(N)=O)NC1=O", "EC50 [nM]": "> 40000"}
{"Compound": "CN(C)S(=O)(=O)c1cc(O)c(O)c2c1CN(Cc1ccc(F)c(Cl)c1)C2=O", "read-out": "viral replication", "strain": "integrase Y143R mutant, VSV-G pseudotyped", "EC50 [nM]": "20 ± 6"}
{"Compound": "Cc1cn(C2CC(N(C)C)C(CO)O2)c(=O)[nH]c1=O (stereo not shown)", "read-out": "viral cytopathic effect", "technique": "MTT", "cells": "MT-4", "strain": "IIIB", "EC50 [nM]": "> 460"}
{"Compound": "CC(C)C[C@@H]1NC(=O)[C@H](CCCCN)NC(=O)[C@H](CC(C)C)NC(=O)[C@@](C)(NC(=O)[C@H](Cc2ccccc2)NC(=O)[C@H](Cc2ccc(O)cc2)NC(=O)[C@H](C)NC(=O)[C@@H](NC(=O)c2ccc3c(c2)C(=O)OC32c3ccc(O)cc3Oc3cc(O)ccc32)[C@@H](C)O)CCCC=CCCC[C@@](C)(C(=O)NCC(=O)N[C@@H](CCCNC(=N)N)C(=O)N[C@@H](Cc2c[nH]c3ccccc23)C(N)=O)NC1=O", "EC50 [nM]": 11000}
{"Compound": "O=C(NCc1ccc(F)cc1F)c1c(O)c2cccnc2n(O)c1=O", "read-out": "viral infectivity", "strain": "integrase G118R", "EC50 [nM]": "107 ± 8"}
{"Compound": "CCCCCCCCCC(=O)OCC1OC(n2cc(C)c(=O)[nH]c2=O)CC1N(C)C (stereo not shown)", "read-out": "viral cytopathic effect", "technique": "MTT", "cells": "MT-4", "strain": "IIIB", "EC50 [nM]": "> 150"}
{"Compound": "COc1cc2nc(NC3CCN(Cc4ccc(C(N)=O)cc4)CC3)nc(Oc3c(C)cc(C#N)cc3C)c2cc1OC", "read-out": "viral replication", "cells": "TZM-bl", "strain": "GH9 K101P/K103N/V108I", "EC50 [nM]": "22.1 ± 6.88"}
{"Compound": "Nc1c(C(=O)NCc2ccc(F)cc2F)c(=O)n(O)c2ncccc12", "read-out": "viral replication", "technique": "single-round infectivity", "strain": "integrase H51Y/R263K", "EC50 [nM]": "3.2 ± 0.9"}
{"Compound": "O=C1c2ccc(O)c(O)c2C(=O)N1Cc1ccc(F)c(Cl)c1", "read-out": "viral replication", "strain": "integrase Y143R mutant, VSV-G pseudotyped", "EC50 [nM]": "1800 ± 200"}
{"Compound": "Cc1cc(/C=C/C#N)cc(C)c1Oc1nc(NC2CCN(Cc3ccc(S(C)(=O)=O)cc3)CC2)nc2ncccc12", "read-out": "viral replication", "cells": "TZM-bl", "strain": "GH9 K101P/K103N/V108I", "EC50 [nM]": "11.1 ± 3.87"}
{"note": "For quick reference, copied from above:"}
{"Compound": "O=C1c2ccc(O)c(O)c2C(=O)N1Cc1ccc(F)c(Cl)c1", "read-out": "viral replication", "strain": "integrase Y143R mutant, VSV-G pseudotyped", "EC50 [nM]": "1800 ± 200"}
